Assay results from different studies.
A part holds a random share of what one study measured. ± gives the spread as reported.
UniProt P06241, sequence (whole entry, looked up): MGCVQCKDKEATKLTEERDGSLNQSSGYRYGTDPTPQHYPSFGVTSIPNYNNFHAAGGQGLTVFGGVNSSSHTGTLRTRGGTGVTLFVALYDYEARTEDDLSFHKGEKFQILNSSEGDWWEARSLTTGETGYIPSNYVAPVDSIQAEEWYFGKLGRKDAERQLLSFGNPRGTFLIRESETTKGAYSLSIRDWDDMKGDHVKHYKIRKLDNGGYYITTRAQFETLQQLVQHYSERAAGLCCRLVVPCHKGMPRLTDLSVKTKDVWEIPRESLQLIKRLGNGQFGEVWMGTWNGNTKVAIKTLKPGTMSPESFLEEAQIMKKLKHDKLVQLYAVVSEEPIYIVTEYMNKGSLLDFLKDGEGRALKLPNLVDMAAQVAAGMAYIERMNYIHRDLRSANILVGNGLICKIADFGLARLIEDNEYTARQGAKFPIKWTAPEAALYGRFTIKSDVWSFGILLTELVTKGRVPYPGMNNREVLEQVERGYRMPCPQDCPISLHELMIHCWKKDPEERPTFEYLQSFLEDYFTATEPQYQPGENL
UniProt P28223, sequence (whole entry, looked up): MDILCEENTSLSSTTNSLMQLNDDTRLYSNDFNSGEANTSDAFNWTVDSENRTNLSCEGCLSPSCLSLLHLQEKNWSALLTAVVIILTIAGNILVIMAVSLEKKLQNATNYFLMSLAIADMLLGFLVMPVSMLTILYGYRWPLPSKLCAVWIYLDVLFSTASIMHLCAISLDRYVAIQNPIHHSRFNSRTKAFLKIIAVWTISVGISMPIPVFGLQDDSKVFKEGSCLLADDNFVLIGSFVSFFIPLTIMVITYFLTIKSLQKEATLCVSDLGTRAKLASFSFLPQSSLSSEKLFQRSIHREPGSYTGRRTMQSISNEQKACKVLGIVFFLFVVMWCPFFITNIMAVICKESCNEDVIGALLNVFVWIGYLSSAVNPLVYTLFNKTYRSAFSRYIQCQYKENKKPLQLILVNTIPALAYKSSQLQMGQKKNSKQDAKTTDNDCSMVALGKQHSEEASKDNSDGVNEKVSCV
UniProt O00506, sequence (whole entry, looked up): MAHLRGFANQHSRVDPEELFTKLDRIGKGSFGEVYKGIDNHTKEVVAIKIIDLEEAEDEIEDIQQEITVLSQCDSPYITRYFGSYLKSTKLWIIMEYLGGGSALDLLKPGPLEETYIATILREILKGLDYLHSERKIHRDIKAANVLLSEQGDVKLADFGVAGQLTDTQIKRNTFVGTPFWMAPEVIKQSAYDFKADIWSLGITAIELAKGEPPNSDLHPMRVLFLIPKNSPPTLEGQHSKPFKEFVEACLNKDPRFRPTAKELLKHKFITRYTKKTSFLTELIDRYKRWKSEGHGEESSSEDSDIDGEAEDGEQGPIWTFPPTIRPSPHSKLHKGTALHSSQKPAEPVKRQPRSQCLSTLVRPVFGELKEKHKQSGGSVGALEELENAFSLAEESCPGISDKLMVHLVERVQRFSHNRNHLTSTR
UniProt P51817, sequence (whole entry, looked up): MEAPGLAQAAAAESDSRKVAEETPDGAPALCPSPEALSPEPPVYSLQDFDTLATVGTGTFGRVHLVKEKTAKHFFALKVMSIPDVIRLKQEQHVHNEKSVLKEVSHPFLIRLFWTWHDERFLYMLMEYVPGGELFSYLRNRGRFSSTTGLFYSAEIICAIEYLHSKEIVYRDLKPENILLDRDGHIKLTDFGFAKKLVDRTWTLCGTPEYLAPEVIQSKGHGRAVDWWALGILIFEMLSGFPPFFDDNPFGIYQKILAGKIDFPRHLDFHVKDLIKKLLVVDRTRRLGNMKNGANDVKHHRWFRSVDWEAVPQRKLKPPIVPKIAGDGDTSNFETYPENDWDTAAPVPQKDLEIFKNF
UniProt P11229, sequence (whole entry, looked up): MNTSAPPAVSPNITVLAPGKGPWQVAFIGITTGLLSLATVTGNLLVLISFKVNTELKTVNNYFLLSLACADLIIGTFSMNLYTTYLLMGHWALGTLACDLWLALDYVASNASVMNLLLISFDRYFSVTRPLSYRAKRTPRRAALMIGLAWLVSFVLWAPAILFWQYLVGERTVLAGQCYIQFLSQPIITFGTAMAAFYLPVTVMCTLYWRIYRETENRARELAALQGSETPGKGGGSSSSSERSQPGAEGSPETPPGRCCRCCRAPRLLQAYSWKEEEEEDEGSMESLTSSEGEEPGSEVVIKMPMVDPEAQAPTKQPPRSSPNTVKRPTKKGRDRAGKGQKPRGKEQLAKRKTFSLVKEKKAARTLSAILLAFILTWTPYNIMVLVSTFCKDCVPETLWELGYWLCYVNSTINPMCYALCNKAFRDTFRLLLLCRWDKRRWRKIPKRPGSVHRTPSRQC

Set 1
SMILES: COc1ccc2c(c1)/C(=C/c1cnc[nH]1)C(=O)N2
Read-out: enzyme activity
Mode: inhibitor
Tested at: 0.5 µM
Baseline: control
target | remaining activity [%]
ALK (Homo sapiens, UniProt Q9UM73) | 112
FGR (Homo sapiens, UniProt P09769) | 80.4
PRKX (Homo sapiens, UniProt P51817) | 87.9
MATK (Homo sapiens, UniProt P42679) | 92.3
CDC42BPA (Homo sapiens, UniProt Q5VT25) | 98.5
TAOK3 (Homo sapiens, UniProt Q9H2K8) | 44
MARK3 (Homo sapiens, UniProt P27448) | 56.2
ITK (Homo sapiens, UniProt Q08881) | 94
LIM domain kinase 1 (LIMK1, Homo sapiens, UniProt P53667) | 89.6
NLK (Homo sapiens, UniProt Q9UBE8) | 69.7
HIPK1 (Homo sapiens, UniProt Q86Z02) | 98.9
PASK (Homo sapiens, UniProt Q96RG2) | 93.4
NEK11 (Homo sapiens, UniProt Q8NG66) | 84.8
STK25 (Homo sapiens, UniProt O00506) | 86.2
FLT4 (Homo sapiens, UniProt P35916) | 66.4
SRC (Homo sapiens, UniProt P12931) | 92.1
FYN (Homo sapiens, UniProt P06241) | 81.2
AKT1 (Homo sapiens, UniProt P31749) | 100
PKN1 (Homo sapiens, UniProt Q16512) | 87.4
FER (Homo sapiens, UniProt P16591) | 88.4

Set 2
Organism: Vesicular stomatitis virus
Read-out: pseudovirus infection
Tested at: concentration not given
Setting: VSV-G control pseudotype
Compound | GFP signal
O.O.O.O.O=C([O-])CC(O)(CC(=O)[O-])C(=O)[O-].[Li+].[Li+].[Li+] | 88%
O=N[O-].[Na+] | 106%
Cl.OC(CCN1CCCCC1)(c1ccccc1)C1CCCCC1 (racemic) | 109%
Brc1c(NC2=NCCN2)ccc2nccnc12.O=C(O)C(O)C(O)C(=O)O | 115%
O=C([O-])CN(CCN(CC(=O)[O-])CC(=O)O)CC(=O)[O-].[Na+].[Na+].[Na+] | 115%
Cl.N[C@@H]1C[C@H]1c1ccccc1 | 93.5%
Cl.Nc1c2c(nc3ccccc13)CCCC2.O | 121%
CC(C)OC(=O)[C@H](C)N[P@](=O)(CO[C@H](C)Cn1cnc2c(N)ncnc21)Oc1ccccc1 | 144%
CNCC(O)c1ccc(O)c(O)c1 (racemic) | 108%

Set 3
Compound: O=C(c1ccc(F)cc1)N1CC(COc2ccc(Br)cc2)(C(=O)O)C1
Read-out: cell-free assay
Tested at: 10 µM
target | inhibition [%]
OPRM1 (Homo sapiens, UniProt P35372) | -11.9
DRD5 (Homo sapiens, UniProt P21918) | 2.2
CHRM3 (Homo sapiens, UniProt P20309) | 27.9
CHRM1 (Homo sapiens, UniProt P11229) | -0.69
HTR2A (Homo sapiens, UniProt P28223) | -2.23
OPRK1 (Homo sapiens, UniProt P41145) | -9.45

Set 4
Target: DNA polymerase theta, ATPase domain (POLQ, Homo sapiens, UniProt O75417)
UniProt O75417, sequence (whole entry, unmodified, looked up): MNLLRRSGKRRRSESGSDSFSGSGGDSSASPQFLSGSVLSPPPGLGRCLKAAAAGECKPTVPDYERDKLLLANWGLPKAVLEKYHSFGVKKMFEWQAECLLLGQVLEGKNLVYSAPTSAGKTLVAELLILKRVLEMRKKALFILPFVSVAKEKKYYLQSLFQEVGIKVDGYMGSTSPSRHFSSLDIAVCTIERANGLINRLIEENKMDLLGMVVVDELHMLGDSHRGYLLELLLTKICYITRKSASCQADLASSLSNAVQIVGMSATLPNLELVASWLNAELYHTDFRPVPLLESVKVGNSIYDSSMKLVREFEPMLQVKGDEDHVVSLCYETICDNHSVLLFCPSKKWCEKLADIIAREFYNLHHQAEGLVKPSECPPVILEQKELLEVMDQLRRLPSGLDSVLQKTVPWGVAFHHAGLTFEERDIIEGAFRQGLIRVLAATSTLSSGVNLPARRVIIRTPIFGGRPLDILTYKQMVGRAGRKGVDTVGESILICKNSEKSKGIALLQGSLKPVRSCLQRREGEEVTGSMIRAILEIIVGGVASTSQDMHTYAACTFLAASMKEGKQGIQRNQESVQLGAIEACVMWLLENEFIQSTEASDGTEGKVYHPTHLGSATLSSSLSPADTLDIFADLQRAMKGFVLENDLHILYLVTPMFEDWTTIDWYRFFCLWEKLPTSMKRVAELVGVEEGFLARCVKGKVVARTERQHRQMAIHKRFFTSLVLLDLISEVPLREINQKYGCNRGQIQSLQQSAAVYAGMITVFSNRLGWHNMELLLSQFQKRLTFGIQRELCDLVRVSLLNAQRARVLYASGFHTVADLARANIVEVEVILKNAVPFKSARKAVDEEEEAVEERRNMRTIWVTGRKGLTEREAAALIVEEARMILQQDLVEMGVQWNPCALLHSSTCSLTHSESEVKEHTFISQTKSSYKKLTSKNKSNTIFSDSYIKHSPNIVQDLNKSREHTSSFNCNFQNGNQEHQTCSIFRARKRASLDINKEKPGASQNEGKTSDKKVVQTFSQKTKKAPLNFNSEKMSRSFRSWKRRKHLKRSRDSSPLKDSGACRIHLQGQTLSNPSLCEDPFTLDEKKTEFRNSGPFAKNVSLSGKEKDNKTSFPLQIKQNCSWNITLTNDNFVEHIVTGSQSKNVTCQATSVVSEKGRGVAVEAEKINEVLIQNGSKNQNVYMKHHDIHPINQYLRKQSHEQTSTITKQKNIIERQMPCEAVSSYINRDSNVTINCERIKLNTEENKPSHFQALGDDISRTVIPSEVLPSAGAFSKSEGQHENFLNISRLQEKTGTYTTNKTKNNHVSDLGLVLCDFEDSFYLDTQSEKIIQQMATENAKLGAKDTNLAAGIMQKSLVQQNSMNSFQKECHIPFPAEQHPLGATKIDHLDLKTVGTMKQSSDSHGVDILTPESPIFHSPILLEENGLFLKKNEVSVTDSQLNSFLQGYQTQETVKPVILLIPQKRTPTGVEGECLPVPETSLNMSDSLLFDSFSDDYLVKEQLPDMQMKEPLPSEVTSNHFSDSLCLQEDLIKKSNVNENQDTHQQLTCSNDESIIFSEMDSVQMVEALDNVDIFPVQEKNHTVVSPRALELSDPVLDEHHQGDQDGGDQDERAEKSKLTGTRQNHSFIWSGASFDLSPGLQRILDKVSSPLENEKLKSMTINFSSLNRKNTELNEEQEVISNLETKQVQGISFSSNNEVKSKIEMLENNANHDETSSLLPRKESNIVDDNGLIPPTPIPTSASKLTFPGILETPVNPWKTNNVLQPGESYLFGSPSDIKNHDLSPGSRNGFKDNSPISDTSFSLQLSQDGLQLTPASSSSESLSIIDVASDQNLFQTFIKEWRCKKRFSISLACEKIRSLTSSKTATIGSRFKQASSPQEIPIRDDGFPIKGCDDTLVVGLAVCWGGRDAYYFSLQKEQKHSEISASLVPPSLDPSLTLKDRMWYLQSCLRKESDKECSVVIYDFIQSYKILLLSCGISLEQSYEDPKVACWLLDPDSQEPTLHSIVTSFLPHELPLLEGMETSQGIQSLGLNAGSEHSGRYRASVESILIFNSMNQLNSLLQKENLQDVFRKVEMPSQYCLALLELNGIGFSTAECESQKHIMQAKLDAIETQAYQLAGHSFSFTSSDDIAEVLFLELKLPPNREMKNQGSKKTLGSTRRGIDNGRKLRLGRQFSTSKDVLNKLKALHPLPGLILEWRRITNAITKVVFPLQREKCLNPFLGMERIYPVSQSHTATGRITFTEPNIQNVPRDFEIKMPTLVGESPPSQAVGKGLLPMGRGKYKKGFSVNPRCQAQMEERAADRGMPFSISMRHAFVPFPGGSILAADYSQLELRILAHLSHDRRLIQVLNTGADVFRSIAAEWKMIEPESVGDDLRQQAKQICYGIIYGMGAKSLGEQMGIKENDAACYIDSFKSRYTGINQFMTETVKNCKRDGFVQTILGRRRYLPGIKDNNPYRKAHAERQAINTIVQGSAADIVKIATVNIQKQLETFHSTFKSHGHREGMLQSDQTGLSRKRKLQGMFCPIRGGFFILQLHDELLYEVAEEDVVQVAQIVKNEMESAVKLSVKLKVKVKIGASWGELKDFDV
Read-out: enzyme activity
Mode: inhibitor
Tested at: 77 µM
Baseline: untreated
Compound | remaining activity
C[C@@H]1CC[C@@]2(OC1)O[C@H]1C[C@H]3[C@@H]4CC=C5C[C@@H](O[C@@H]6O[C@H](CO)[C@@H](O[C@@H]7O[C@@H](C)[C@H](O)[C@@H](O)[C@H]7O)[C@H](O)[C@H]6O[C@@H]6O[C@@H](C)[C@H](O)[C@@H](O)[C@H]6O)CC[C@]5(C)[C@H]4CC[C@]3(C)[C@H]1[C@@H]2C | 103%
COc1cc(OC)c(OC)cc1C=O | 97.8%
CCNC(=O)[C@H]1O[C@@H](n2cnc3c(N)ncnc32)[C@H](O)[C@@H]1O | 102%
COc1ccc2c(c1OC)CN1CCc3cc4c(cc3C1C2)OCO4 (stereo not shown) | 101%
Nc1ccc(CCN2CCN(c3cccc(C(F)(F)F)c3)CC2)cc1 | 105%
Clc1cnc(Oc2ccc(Oc3ncc(Cl)cc3Cl)cc2)c(Cl)c1 | 98.8%
C#C[C@]1(O)CC[C@H]2[C@@H]3CCC4=CC(=O)CC[C@]4(C)[C@H]3CC[C@@]21C | 97.3%

Mixed results
Compound | target or system | assay | test system | conditions | endpoint | value
Nc1nc2c(ncn2[C@@H]2O[C@H](CO)[C@@H](O)[C@H]2O)c(=S)[nH]1 | Vero E6 | imaging |  | 4 (unit not given) | CC50 | 12.7 µM
CCN(CC)C(=O)c1ccc(C2=CC3(CCNCC3)Oc3cccc(O)c32)cc1 | Delta-type opioid receptor, with β-arrestin1 (OPRD1, Homo sapiens, UniProt P41143) |  | human cells |  | Emax | 110 ± 9%
CC(C)C[C@@H](C=O)NC(=O)[C@H](CC(C)C)NC(=O)[C@H](CC(C)C)NC(=O)OCc1ccccc1 | Vero E6 | imaging |  | 4 (unit not given) | CC50 | 3 µM
CC#CC(=O)N1CCC[C@H]1c1nc(-c2ccc(C(=O)Nc3ccccn3)cc2)c2c(N)nccn12 | pknB (Mycobacterium tuberculosis, UniProt P9WI81) | enzyme activity, inhibitor |  | 1 µM | inhibition | 0%

Some of these lines once more (set 1):
target | remaining activity [%]
NLK (Homo sapiens, UniProt Q9UBE8) | 69.7
MARK3 (Homo sapiens, UniProt P27448) | 56.2
TAOK3 (Homo sapiens, UniProt Q9H2K8) | 44
FGR (Homo sapiens, UniProt P09769) | 80.4
